Assay results of several laboratories.
A part holds a random share of what one study measured. Substitutions count along the parent as printed.

Study 1 — method: aptamer microarray, sandwich; form: DNA with 2'F-ANA; matrix: in vitro; tested at: 200 nM; added: Cy3 exosite-II aptamer, 400 nM; direction: higher = stronger binding; sequence: GGTTGGTGTGGTTGG
Target: Prothrombin, mature alpha-thrombin (F2, Homo sapiens, UniProt P00734)
Notes: whole 15-mer aptamer, many near background
For `2'F-ANA at 1 2 3 6 7 8 10 11 13`, “mean fluorescence intensity” read 63.6 a.u.
`2'F-ANA at 1 6 7 8 11 13`: “mean fluorescence intensity” 157 a.u.
Under “mean fluorescence intensity”, `2'F-ANA at 1 2 3 7 10 13` is recorded as 78.5 a.u.
For `2'F-ANA at 1 2 3 5 6 8 10 13 14`, “mean fluorescence intensity” read 163 a.u.
`2'F-ANA at 1 2 4 8 9 11 14 15` — result for “mean fluorescence intensity”: 51.7 a.u.
`2'F-ANA at 4 7 12 14` — result for “mean fluorescence intensity”: 168 a.u.
For `2'F-ANA at 6 8 10 11 12 13 14 15`, “mean fluorescence intensity” read 91.9 a.u.
`2'F-ANA at 3 4 6 8 14 15` — result for “mean fluorescence intensity”: 266 a.u.

Study 2 — method: protein binding microarray; form: double-stranded DNA, one strand shown; matrix: in vitro; tested at: not given; baseline: not given; direction: higher = stronger binding
Target: Histone acetyltransferase KAT6A, winged helix 2, GST fusion (KAT6A, Homo sapiens, UniProt Q92794, residues 85-181)
Notes: 8-mer, flanks averaged, mean of 2 arrays, mostly near background
Construct (chain): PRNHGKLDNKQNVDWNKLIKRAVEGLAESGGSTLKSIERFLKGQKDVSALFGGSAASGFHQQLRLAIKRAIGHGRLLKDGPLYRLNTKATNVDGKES
With `CCCAAAGC` the E-score was 0.00906.
The E-score of `CGCAGGTC` is reported as 0.0401.
`ATTACAAA` gave an E-score of 0.149.
The E-score of `GCGCGCGA` is reported as 0.218.
With `GGTACGAC` the E-score was -0.11.
`GGAGGGCC` has an E-score of 0.0692.
The E-score of `AAGATTCA` is reported as 0.011.
`CAGTTTGG` has an E-score of -0.0258.

Other studies, line by line
P1: viral docking peptide; CKVKRKLFGSENI; partner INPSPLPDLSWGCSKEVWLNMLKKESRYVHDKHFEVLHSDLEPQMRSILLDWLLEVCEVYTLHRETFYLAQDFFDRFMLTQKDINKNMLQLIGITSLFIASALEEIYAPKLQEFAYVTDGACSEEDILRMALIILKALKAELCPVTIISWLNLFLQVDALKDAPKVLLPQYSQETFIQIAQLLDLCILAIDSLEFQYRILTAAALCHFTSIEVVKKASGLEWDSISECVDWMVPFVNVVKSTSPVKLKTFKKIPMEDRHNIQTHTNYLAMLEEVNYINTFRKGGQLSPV
Under cross-linked residues, `MYH9 (Homo sapiens, UniProt P35579)` is recorded as “K1815 to K1925” (MYH10 (Homo sapiens, UniProt P35580); cross-linking MS; cell fractions; added: DSSO).
`P1 R5K` — result for “normalised enrichment score”: 0.156 (CCNE2, cyclin fold, Cln2 fusion (human); yeast growth competition, sequencing; yeast; strong parent motif; baseline: not given, higher = stronger binding).
`YWHAB (Homo sapiens, UniProt P31946)`: interaction screen “cross-linked” (YWHAG (Homo sapiens, UniProt P61981); cross-linking MS; hits only).

A few entries again (other studies, line by line):
Under cross-linked residues, `MYH9 (Homo sapiens, UniProt P35579)` is recorded as “K1815 to K1925” (MYH10 (Homo sapiens, UniProt P35580); cross-linking MS; cell fractions; added: DSSO).
`P1 R5K` — result for “normalised enrichment score”: 0.156 (CCNE2, cyclin fold, Cln2 fusion (human); yeast growth competition, sequencing; yeast; strong parent motif; baseline: not given, higher = stronger binding).
`YWHAB (Homo sapiens, UniProt P31946)`: interaction screen “cross-linked” (YWHAG (Homo sapiens, UniProt P61981); cross-linking MS; hits only).
